Results gathered from unrelated publications.
Compare with care: the assays were run in different laboratories. ± gives the spread as reported.
Chain of UniProt Q9P0L2 (whole entry, looked up): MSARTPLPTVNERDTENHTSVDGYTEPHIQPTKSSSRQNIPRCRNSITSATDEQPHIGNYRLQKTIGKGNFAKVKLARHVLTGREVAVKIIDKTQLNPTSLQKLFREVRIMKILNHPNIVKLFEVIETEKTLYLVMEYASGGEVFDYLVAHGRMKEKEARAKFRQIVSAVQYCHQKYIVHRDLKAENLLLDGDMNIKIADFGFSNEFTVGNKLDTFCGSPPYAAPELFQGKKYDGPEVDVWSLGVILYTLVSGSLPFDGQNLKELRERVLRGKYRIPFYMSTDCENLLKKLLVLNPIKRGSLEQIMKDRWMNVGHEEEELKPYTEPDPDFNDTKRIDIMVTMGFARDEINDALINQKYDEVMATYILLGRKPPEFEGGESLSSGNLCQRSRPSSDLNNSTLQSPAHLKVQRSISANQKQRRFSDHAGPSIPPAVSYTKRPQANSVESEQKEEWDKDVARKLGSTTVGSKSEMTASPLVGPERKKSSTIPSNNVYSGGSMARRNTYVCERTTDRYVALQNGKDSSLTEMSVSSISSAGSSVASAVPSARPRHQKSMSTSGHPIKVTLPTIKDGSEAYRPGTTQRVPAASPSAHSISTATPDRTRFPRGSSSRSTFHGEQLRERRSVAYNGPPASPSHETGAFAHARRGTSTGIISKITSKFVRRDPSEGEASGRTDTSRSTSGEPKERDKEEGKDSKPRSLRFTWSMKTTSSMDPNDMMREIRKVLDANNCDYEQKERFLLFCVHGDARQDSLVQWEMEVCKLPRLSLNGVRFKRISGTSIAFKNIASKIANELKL
Chain of UniProt Q9Y2I7 (whole entry, looked up): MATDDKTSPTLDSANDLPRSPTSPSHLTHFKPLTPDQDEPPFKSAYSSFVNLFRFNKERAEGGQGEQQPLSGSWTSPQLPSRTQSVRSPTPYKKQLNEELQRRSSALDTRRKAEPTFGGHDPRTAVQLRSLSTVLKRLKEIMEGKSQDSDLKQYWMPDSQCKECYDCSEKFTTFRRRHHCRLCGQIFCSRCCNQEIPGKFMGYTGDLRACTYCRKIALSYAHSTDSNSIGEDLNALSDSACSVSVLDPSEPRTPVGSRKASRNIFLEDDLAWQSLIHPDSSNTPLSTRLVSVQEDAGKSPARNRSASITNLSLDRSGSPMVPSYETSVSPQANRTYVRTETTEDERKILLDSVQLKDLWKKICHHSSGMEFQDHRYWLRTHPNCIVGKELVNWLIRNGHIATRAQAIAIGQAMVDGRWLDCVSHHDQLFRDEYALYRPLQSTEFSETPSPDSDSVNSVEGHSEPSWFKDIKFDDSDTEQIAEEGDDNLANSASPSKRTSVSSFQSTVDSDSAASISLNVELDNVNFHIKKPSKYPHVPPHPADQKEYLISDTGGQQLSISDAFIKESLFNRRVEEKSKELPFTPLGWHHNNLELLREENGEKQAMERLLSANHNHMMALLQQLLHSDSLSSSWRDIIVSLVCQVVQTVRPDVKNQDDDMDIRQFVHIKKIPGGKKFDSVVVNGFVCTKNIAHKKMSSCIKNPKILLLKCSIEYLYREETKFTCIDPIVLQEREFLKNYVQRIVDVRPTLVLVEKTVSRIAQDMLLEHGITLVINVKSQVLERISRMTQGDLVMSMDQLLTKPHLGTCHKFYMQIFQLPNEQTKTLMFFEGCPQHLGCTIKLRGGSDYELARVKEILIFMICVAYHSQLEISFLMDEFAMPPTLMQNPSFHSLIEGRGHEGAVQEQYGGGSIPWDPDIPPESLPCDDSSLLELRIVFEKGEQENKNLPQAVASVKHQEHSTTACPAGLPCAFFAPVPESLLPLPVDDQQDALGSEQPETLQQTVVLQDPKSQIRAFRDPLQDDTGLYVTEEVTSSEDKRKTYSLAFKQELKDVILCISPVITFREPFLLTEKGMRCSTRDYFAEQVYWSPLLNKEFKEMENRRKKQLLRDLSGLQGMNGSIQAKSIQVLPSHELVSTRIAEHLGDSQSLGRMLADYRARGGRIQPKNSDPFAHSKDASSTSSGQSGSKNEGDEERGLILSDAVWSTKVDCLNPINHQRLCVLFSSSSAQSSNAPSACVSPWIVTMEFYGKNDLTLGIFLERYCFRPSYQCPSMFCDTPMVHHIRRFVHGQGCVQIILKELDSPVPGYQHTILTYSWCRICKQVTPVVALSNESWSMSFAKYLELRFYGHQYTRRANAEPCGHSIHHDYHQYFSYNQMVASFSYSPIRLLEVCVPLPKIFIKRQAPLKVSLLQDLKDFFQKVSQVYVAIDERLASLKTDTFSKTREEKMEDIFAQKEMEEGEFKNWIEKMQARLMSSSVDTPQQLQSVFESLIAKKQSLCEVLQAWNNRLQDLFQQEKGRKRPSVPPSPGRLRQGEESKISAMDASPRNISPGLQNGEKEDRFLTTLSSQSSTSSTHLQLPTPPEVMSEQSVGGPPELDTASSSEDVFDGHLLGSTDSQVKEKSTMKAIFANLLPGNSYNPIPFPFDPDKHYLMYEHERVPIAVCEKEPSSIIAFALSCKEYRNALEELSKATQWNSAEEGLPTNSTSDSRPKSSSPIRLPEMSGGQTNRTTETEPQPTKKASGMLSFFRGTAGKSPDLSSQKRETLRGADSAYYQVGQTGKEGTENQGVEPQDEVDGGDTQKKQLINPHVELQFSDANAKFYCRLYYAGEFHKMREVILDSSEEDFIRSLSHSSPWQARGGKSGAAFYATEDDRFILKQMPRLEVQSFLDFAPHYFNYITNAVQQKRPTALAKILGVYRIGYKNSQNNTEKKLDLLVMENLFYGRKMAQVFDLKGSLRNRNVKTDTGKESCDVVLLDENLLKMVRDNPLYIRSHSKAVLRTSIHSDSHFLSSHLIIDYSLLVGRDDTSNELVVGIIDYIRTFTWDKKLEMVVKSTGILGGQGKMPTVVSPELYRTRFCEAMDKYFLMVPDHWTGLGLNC

Under “revertant colonies per plate”, Cc1nc2cccc(OCC(C)(C)C(=O)NC(C)C)c2c(N)c1C(=O)[O-].[Na+] is recorded as 15 ± 6 (Salmonella typhimurium; TA1537; 0.13 mg per plate, with S9, preincubation).
For CSCC[C@@H]1NC(=O)[C@H](C(C)C)NC(=O)[C@H](CCCNC(=N)N)NC(=O)CNC(=O)[C@@H]2CCCN2C(=O)[C@@H](NC(=O)CNC(=O)[C@H](CO)NC(=O)CNC(=O)[C@H](CO)NC(=S)Nc2ccc(C[C@H]3CN(CC(=O)O)CCN(CC(=O)O)CCN3CC(=O)O)cc2)CSSC[C@@H](C(N)=O)NC(=O)[C@@H]2CCCN2C(=O)CNC(=O)[C@H](CCC(=O)O)NC(=O)[C@H](CC(=O)O)NC(=O)[C@H](CC(=O)O)NC(=O)CNC(=O)[C@H](CC(C)C)NC(=O)[C@H](Cc2c[nH]cn2)NC(=O)[C@H](CC(C)C)NC(=O)CNC(=O)[C@H](Cc2c[nH]cn2)NC1=O [copper-64 labelled], the albumin-bound radioactivity was 3.3% (SE-HPLC; rat serum; concentration not given, 1 h, 37 °C).
With CC[C@H](C)[C@H](NC(=O)[C@H](CCCCN)NC(=O)CNC(=O)[C@H](CC(C)C)NC(=O)[C@H](Cc1ccccc1)NC(=O)[C@H](CCCCN)NC(=O)[C@H](CO)NC(=O)[C@H](Cc1ccccc1)NC(=O)[C@H](Cc1c[nH]c2ccccc12)NC(=O)[C@H](CCC(N)=O)NC(=O)[C@@H](NC(=O)[C@H](Cc1ccccc1)NC(=O)CCCCCNC(=O)CN1CCN(CC(=O)O)CCN(CC(=O)O)CCN(CC(=O)O)CC1)C(C)C)C(=O)N[C@@H](CCC(=O)O)C(=O)N1CCC[C@H]1C(=O)N[C@@H](CC(=O)O)C(=O)N[C@H](C(=O)N[C@@H](CO)C(=O)N[C@@H](CCC(N)=O)C(=O)N[C@H](C(=O)N[C@@H](CCC(N)=O)C(=O)N[C@@H](CC(=O)O)C(=O)N1CCC[C@H]1C(=O)N[C@@H](CC(N)=O)C(=O)N[C@@H](CC(=O)O)C(=O)N[C@@H](CCC(N)=O)C(=O)N[C@@H](Cc1ccc(O)cc1)C(=O)N[C@@H](CCC(=O)O)C(=O)N1CCC[C@H]1C(=O)N[C@@H](Cc1ccccc1)C(=O)O)C(C)C)C(C)C [copper-64 labelled] the SUVmean was 0.75 SUV (dynamic PET; mouse both sexes, CT26 tumour, untreated, tumour; intravenous, 100 µCi/mouse, 390 s).
With O=C(CN1C(=O)C2(CCN(C(=O)c3ccc4[nH]ncc4n3)CC2)c2c(Br)cccc21)NCC(F)(F)F the half-life was 72 min (male C57BL/6 mouse, plasma; intraperitoneal, 10 mg/kg).
With CCCCCCCCCCCCCCCC(=O)N[C@@H](CCC(=O)NCCOCCOCCC(=O)NCCOCCOCCC(=O)NCCCC[C@H](NC(=O)[C@H](CC(=O)O)NC(=O)[C@H](CC(C)C)NC(=O)[C@H](Cc1ccc(O)cc1)NC(=O)[C@H](CCCCN)NC(=O)[C@H](CO)NC(=O)[C@H](Cc1ccc(O)cc1)NC(=O)[C@H](CC(=O)O)NC(=O)[C@H](CO)NC(=O)[C@@H](NC(=O)[C@H](Cc1ccccc1)NC(=O)[C@@H](NC(=O)CNC(=O)[C@H](CCC(N)=O)NC(=O)[C@@H](CO)NC(=O)[C@@H](N)Cc1c[nH]cn1)[C@@H](C)O)[C@@H](C)O)C(=O)N[C@@H](CCCNC(=N)N)C(=O)N[C@@H](CCCNC(=N)N)C(=O)N[C@@H](C)C(=O)N[C@@H](CCC(N)=O)C(=O)N[C@@H](CC(=O)O)C(=O)N[C@@H](Cc1ccccc1)C(=O)N[C@H](C(=O)N[C@@H](CCC(N)=O)C(=O)N[C@@H](Cc1c[nH]c2ccccc12)C(=O)N[C@@H](CC(C)C)C(=O)N[C@@H](CC(C)C)C(=O)N[C@@H](CC(N)=O)C(=O)N[C@H](C(=O)NCC(=O)NCC(=O)N1CCC[C@H]1C(=O)N[C@@H](CO)C(=O)N[C@@H](CO)C(=O)NCC(=O)N[C@@H](C)C(=O)N1CCC[C@H]1C(=O)N1CCC[C@H]1C(=O)N1CCC[C@H]1C(=O)N[C@@H](CO)C(N)=O)[C@@H](C)O)C(C)C)C(=O)O the AUC(0-inf) was 68.3 ± 17.6 ng·h/mL (rhesus monkey, both sexes, plasma; subcutaneous, 20 µg/kg, multiple doses, day 1).
For CC(C)[C@H](NC(=O)[C@@H](NC(=O)[C@H](CCCNC(=N)N)NC(=O)[C@H](CCCNC(=N)N)NC(=O)[C@H](CCCNC(=N)N)NC(=O)[C@H](CCC(N)=O)NC(=O)[C@H](CCCNC(=N)N)NC(=O)[C@H](CCCNC(=N)N)NC(=O)[C@H](CCCCN)NC(=O)[C@H](CCCCN)NC(=O)[C@H](CCCNC(=N)N)NC(=O)CN)[C@@H](C)O)C(=O)N[C@H](C(=O)N[C@@H](CO)C(=O)N1CCC[C@H]1C(=O)O)[C@@H](C)O, the kidney weight was 0.313 ± 0.027 g (ICR mouse, male, right kidney; intranasal, 20 mg/kg daily, 4 weeks).
With COc1ccccc1-c1n[nH]c2nc(N[C@H]3CC[C@H](NS(=O)(=O)CC(C)C)CC3)ncc12 the relative abundance was 0.97 (bead binding, competition bead pull-down, measured: LINJ.06.0370; Leishmania donovani extract; 10 µM; reference: vehicle).
With CN(C)[C@H]1C[C@@]23CC[C@@]4(O2)C(=CC[C@]2(C)[C@@H](c5ccc6ccncc6c5)CC[C@H]24)C=C3[C@@H](O)[C@@H]1O the inhibition was 3.1% (PIKFYVE (Homo sapiens, UniProt Q9Y2I7); ATP probe labelling, inhibitor, KiNativ profiling; 1 µM).
For CC(C)=CCC/C(C)=C\CCn1cc(CC(C)(P(=O)(O)O)P(=O)(O)O)nn1, the concentration was 5590 ± 1930 ng/mL (mouse CD-1, bile; intravenous, 0.3 mg/kg, 2 h).
O=C1NC2(CC2)COc2ncc(F)cc2[C@H]2COCCN2c2ccn3ncc1c3n2 — result for “organ-to-brain weight ratio”: 53.6 ± 2.19% (Sprague-Dawley rat, female, heart; oral, 5 mg/kg/day, 4 weeks dosing, end of recovery).
The log LC50 of CC(C)(C)C(=O)OCOP(=O)(OCOC(=O)C(C)(C)C)C1CCCN(O)C1=O (stereo not shown) is reported as > -4 log M (U-251).
For CC(C)C[C@H](NC(=O)[C@H](Cc1ccc(O)cc1)NC(=O)[C@H](C)NC(=O)[C@@H](NC(=O)[C@H](CC(C)C)NC(=O)[C@H](C)NC(=O)[C@H](C)NC(=O)[C@H](CCCCN)NC(=O)CNC(=O)[C@@H](NC(=O)[C@H](Cc1c[nH]cn1)NC(=O)[C@H](CCCCN)NC(=O)CNC(=O)[C@@H](NC(=O)[C@H](Cc1c[nH]cn1)NC(=O)[C@@H](NC(=O)[C@H](C)NC(=O)[C@H](CCCCN)NC(=O)[C@H](CCCCN)NC(=O)[C@H](Cc1ccccc1)NC(=O)[C@H](Cc1c[nH]c2ccccc12)NC(=O)[C@H](CCCCN)NC(=O)CNC(=O)[C@H](Cc1c[nH]c2ccccc12)NC(=O)[C@@H](N)CCCNC(=N)N)[C@@H](C)O)C(C)C)C(C)C)[C@@H](C)O)C(N)=O, “acute toxic concentration” read 5 µM (zebrafish embryos 28 hpf, E3 medium; 1 h).
For CC(C)[C@@H]1NC(=O)CNC(=O)[C@H](CC(N)=O)NC(=O)[C@H](CCCNC(=N)N)NC(=O)[C@H](Cc2ccc(O)cc2)NC(=O)[C@H](C(C)C)NC(=O)[C@@H](NC(=O)[C@@H](NC(=O)[C@H](CC(N)=O)NC(=O)[C@H](Cc2c[nH]c3ccccc23)NC(=O)[C@H](C)NC(=O)[C@H](Cc2ccccc2)NC(=O)CNC(=O)[C@H](CCCCN)NC(=O)[C@H](Cc2ccccc2)NC(=O)[C@H](Cc2ccccc2)NC(=O)[C@H](CCCCN)NC(=O)OCC2c3ccccc3-c3ccccc32)C(C)C)CSSC[C@@H](C(=O)N[C@@H](Cc2c[nH]cn2)C(=O)N[C@@H](CCCNC(=N)N)C(=O)N[C@@H](CCCNC(=N)N)C(=O)N[C@@H](C)C(=O)N[C@@H](CC(N)=O)C(N)=O)NC(=O)[C@H](C(C)C)NC(=O)[C@H](CCCNC(=N)N)NC1=O, “platelet distribution width” read 15.87 ± 0.09% (ICR mice, blood; intraperitoneal, 10 mg/kg, day 5).
For CC[C@H](C)[C@H](NC(=O)[C@H](Cc1c[nH]c2ccccc12)NC(=O)c1ccccc1)C(=O)N[C@@H](CCCNC(=N)N)C(=O)N[C@@H](Cc1ccc(O)cc1)C(=O)N[C@@H](CCCCN)C(=O)N[C@@H](Cc1c[nH]c2ccccc12)C(=O)N[C@H](CCCNC(=N)N)C(=O)N[C@@H](CCCNC(=N)N)C(=O)N[C@@H](CCCCN)C(=O)N[C@@H](CCCCN)C(=O)N[C@H](C(=O)N[C@@H](CCCNC(=N)N)C(=O)N[C@@H](Cc1ccc(O)cc1)C(=O)N[C@@H](Cc1c[nH]c2ccccc12)C(=O)N[C@H](C(=O)NCC(=O)N1CCC[C@H]1C(N)=O)[C@@H](C)O)C(C)C, the melting temperature was < 0 °C (circular dichroism; phosphate buffer; 30 µM, pH 6.5).
The hydrodynamic diameter of CC(C)C[C@H](NC(=O)[C@H](C)NC(=O)[C@H](Cc1cn(CCc2ccc(O)c(C=O)c2)nn1)NC(=O)[C@H](Cc1ccccc1)NC(=O)CCNC(=S)Nc1ccc2c(c1)C(=O)OC21c2ccc(O)cc2Oc2cc(O)ccc21)C(=O)N[C@@H](CC(=O)O)C(=O)N[C@@H](Cc1c[nH]c2ccccc12)C(=O)N[C@@H](CO)C(=O)N[C@@H](Cc1c[nH]c2ccccc12)C(=O)N[C@@H](CC(C)C)C(=O)N[C@@H](CCC(N)=O)C(=O)N[C@H](C(=O)N[C@@H](CCC(=O)O)C(N)=O)[C@@H](C)O is reported as 1210 ± 187 nm (dynamic light scattering; PBS/DMSO; 5000 nM).
For Cc1cc(-c2ccc3ccccc3c2)nnc1NCCN1CCN(C)CC1, the compound remaining was 62.7% (metabolic stability; rat, liver microsomes; 1 h).
COc1ccccc1-c1n[nH]c2nc(NC3CCN(C(=O)Cc4ccc(F)cc4F)CC3)ncc12 gave a relative abundance of 0.97 (bead binding, competition bead pull-down, measured: LINJ.24.1910; Leishmania donovani extract; 10 µM; reference: vehicle).
CC(=O)NCCCC[C@@H]1NC(=O)[C@H](Cc2c[nH]c3c(C)cccc23)NC(=O)[C@H]([C@@H](C)O)NC(=O)[C@H](CC(N)=O)NC(=O)[C@@H](NC(C)=O)C(C)(C)SSC(C)(C)[C@@H](C(=O)N[C@@H](Cc2ccc(OCCN)cc2)C(=O)N[C@@H](Cc2ccc3ccccc3c2)C(=O)NC2(C(=O)N[C@@H](CCC(=O)O)C(=O)N[C@@H](CC(N)=O)C(=O)N[C@@H](Cc3cccnc3)C(=O)N(C)CC(N)=O)CCOCC2)NC1=O: “apparent clearance CL/F” 5210 ± 1830 L/h (human; oral, 25 mg multiple doses, day 10).
CS(C)(=O)=Nc1ccc(-c2ccc(-c3nc4cc(O[C@@H]5CO[C@H]6[C@@H]5OC[C@H]6O)[nH]c4cc3F)cc2)cc1 has an inhibition of -26% (MARK1 (Homo sapiens, UniProt Q9P0L2); enzyme activity, inhibitor; 10 µM).
